Measurements gathered from unrelated publications.
Every numbered part comes from another study and shows a few of its results, in no order. Positions count from the first letter of the parent shown.

Sample 1
Target: Sal-like protein 4, full length isoform B (SALL4, Homo sapiens, UniProt Q9UJQ4-2, residues 1-616)
Technique: universal PBM
Molecule type: double-stranded DNA, one strand shown
Medium: in vitro
Tested at: not given
Setting: 8-mer, flanks averaged, mean of replicates
Direction: higher = stronger binding
Construct (chain): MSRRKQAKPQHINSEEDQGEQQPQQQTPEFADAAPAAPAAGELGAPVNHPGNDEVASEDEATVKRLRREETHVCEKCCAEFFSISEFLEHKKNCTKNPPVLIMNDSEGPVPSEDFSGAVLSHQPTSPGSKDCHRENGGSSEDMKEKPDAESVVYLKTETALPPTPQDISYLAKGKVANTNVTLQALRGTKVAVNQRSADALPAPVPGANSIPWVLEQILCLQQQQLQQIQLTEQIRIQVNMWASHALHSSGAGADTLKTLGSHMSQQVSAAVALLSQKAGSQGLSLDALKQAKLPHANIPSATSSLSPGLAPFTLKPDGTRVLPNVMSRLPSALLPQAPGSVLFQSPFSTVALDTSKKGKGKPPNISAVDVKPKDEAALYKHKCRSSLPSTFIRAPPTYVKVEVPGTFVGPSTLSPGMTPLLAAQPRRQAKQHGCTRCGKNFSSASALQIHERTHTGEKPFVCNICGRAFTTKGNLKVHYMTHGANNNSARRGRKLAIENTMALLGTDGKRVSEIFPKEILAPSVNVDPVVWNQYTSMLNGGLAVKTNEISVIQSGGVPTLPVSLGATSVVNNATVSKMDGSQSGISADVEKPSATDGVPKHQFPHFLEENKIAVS
For `AAAATACA`, the E-score was 0.316.
With `ATCGGCAT` the E-score was 0.134.
With `ACATCGGA` the E-score was -0.0331.
With `AGCGTTCG` the E-score was -0.314.
For `CCCCGGCA`, the E-score was -0.266.
For `GACTTCAA`, the E-score was 0.0779.
With `AAACCAAC` the E-score was 0.138.
The E-score of `TAGGTCCA` is reported as -0.0185.
`TGACTAAA` gave an E-score of 0.0621.
`GCAGCTCA` has an E-score of -0.148.
`CACCGGTC` gave an E-score of -0.246.
`ATGACGGG` has an E-score of -0.0968.
For `CTTTCTTC`, the E-score was -0.0821.
`ACATGAAA` has an E-score of 0.193.
The E-score of `AAATCGGA` is reported as 0.00981.
With `TCCTCTCA` the E-score was 0.0207.
With `AGTTGGTC` the E-score was -0.0631.
`AAGCCAAT` has an E-score of 0.125.
`ACACAGAT` gave an E-score of 0.145.
`AACCACAA` has an E-score of 0.121.
For `ACGAAAAC`, the E-score was 0.153.
The E-score of `GGCTAGCA` is reported as -0.0657.
`ATTAACTG` gave an E-score of 0.334.
With `GACGCGAC` the E-score was -0.315.
The E-score of `ATGTGTGC` is reported as -0.0126.

Sample 2
Target: ABI1, truncated, D143A, DHFR fusion (Arabidopsis thaliana)
Technique: DHFR PCA, deep sequencing
Medium: yeast
Setting: methotrexate growth selection, single substitutions
With: (+)-ABA 0.0091 µM
Relative to: wild-type fitted maximum
Direction: higher = stronger binding
Parent: PYL1, truncated, DHFR fusion (Arabidopsis thaliana); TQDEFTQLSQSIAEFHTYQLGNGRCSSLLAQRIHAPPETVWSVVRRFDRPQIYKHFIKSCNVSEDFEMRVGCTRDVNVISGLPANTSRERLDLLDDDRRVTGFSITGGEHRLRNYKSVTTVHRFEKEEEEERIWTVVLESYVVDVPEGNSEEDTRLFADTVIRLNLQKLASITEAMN; partner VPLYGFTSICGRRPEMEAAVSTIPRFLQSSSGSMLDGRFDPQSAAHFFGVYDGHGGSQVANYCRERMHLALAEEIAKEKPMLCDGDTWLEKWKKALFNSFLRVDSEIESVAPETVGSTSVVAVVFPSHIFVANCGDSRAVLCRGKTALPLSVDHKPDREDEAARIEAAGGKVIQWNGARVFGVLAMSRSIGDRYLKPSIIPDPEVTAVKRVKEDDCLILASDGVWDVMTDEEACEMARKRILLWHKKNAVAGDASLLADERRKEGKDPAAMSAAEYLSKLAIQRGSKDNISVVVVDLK
Under “relative binding score”, `F15I` is recorded as -1.86%.
`A30C`: “relative binding score” 9.05%.
For `W134G`, “relative binding score” read 13.3%.
Under “relative binding score”, `E109W` is recorded as -3.09%.
For `A35Y`, “relative binding score” read -3.56%.
Under “relative binding score”, `I33V` is recorded as 3.49%.
For `E130G`, “relative binding score” read 33.5%.
Under “relative binding score”, `R123H` is recorded as 35.9%.
`S87I`: “relative binding score” 62.1%.
For `D97K`, “relative binding score” read 35.5%.
`E38D` — result for “relative binding score”: 25.9%.
For `Q31I`, “relative binding score” read 1.68%.
For `L156N`, “relative binding score” read -0.205%.

Sample 3
Target: RING finger protein unkempt homolog, zinc fingers 1-6, GST-SBP tag (UNK, Homo sapiens, UniProt Q9C0B0, residues 30-357)
Sequence of UniProt Q9C0B0 (30-357, looked up): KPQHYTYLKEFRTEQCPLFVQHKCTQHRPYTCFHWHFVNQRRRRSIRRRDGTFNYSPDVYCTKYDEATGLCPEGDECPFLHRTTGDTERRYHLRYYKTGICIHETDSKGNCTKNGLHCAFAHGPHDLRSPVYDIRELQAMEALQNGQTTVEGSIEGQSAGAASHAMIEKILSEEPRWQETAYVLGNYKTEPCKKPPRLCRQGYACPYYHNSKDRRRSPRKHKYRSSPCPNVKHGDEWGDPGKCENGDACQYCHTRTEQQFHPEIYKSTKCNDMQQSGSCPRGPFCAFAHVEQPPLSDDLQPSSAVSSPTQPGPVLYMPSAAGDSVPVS
Technique: RNA Bind-n-Seq
Molecule type: RNA
Medium: in vitro
Tested at: not given
Setting: RNA with constant flanks, human and mouse sites, ends assumed
Relative to: input RNA pool
Direction: higher = stronger binding
The bound/input enrichment of `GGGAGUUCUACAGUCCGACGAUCUCCAACGAACUUUUGGAAGAGGCCUUUAGCCAGUUUGGUCCUAUUGAAAGGGCUGUUGUAAUUGUGGAUGAUCGCGGAAGAUCUACAGGGAAAGGCAUUGUUGAGUUUGCUUCCAAGCCACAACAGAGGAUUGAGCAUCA` is reported as 0.332 ratio.
`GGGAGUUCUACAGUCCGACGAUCUACAGCUCCGGGAAUGAGCCGGCAGAAAGCAACCAGGUGACACCGAUGCUGCGGCAUCUUAUGUACAAAAUAAAGUCUACAGGUCCCAUCACUGUGGCCGAGUACAUGAAGGAGGUUUUGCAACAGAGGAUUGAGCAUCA` gave a bound/input enrichment of 0.178 ratio.
The bound/input enrichment of `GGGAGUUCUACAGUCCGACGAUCACAAACCAGACUUUUAUAUUUUAAUUUUACAGAUUUUACUACAUGAUUUUUCUAAAUUACUAUGUCAGGUUGUAAAAGUCAGUGCAAUAACAAACCUUCCUUUUUAAGAAGAAAAUUGUUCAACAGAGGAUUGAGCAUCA` is reported as 0.542 ratio.
The bound/input enrichment of `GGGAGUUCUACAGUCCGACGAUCCACAUUCAAGAAAGCCGAUUCUUAUAUCCUGGAAAGAAUGGCAGACUUGGAGACUUCUUCGGAGACCCUGGCAACCCUCCUGAAUUUAAUCCCUCUGGGAGUAAAGAUGGAAAAUACGAACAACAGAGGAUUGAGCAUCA` is reported as 0.138 ratio.
The bound/input enrichment of `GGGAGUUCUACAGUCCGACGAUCAUUCCCAAUGCUACACAACCAGAAAGUAAGGUGUUCUACUUGAAAAUGAAAGGAGAUUAUUUUAGGUAUCUUUCUGAAGUGGCAUCUGGAGACAACAAACAAACCACUGUGUCGAACUCCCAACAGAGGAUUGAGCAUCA` is reported as 0.285 ratio.
`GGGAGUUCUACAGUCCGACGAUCAGCAUUUUCCCCUGUUACCUUUAUAUUACACAAUCUGUUCUAUGGUAACAAUACAGAGGAGCGAGCUAGUUUACUGCACCAGUGUUAAUAGGAAAUUUCAGUAUAUCAUGAACAAAUCGACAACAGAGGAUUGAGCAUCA` has a bound/input enrichment of 1.06 ratio.
`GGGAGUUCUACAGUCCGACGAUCGGAUACCUUCAGUCGAAGUUUUUUUAGCCCUCACUGAGCUACUUCCAAGUUUGGAAGUACUUAGUGACCUUGGUGAGUUUCUGUCCCCAAUCCCUUAACCCCUCAUCAAUGCUGCUAGUUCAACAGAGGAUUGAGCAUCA` gave a bound/input enrichment of 0.387 ratio.
`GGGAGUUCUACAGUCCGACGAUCUCUUAACUUAUUCAUUUAACUUAUUUUUAUAGCUAGAUAAAUAUUGUUAGUCUUAGACAAUAGCUCACAUUUUUUGAGAAGCAUGCCCUCCCUGUCCAUUUGUCUUAUAACAUGACCCAGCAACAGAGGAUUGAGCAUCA` has a bound/input enrichment of 13.2 ratio.

Sample 4
Target: CCND2, cyclin fold, Cln2 fusion (human)
Technique: yeast growth competition, sequencing
Medium: yeast
Setting: weak parent motif
Relative to: not given
Direction: higher = stronger binding
Parent: PKN2 docking peptide (human); DSTVTKLDFDLEP
`DSTVTKLDADLEP [F9A]`: “normalised enrichment score” -0.00435.
`DSTVTKLDFDLAP [E12A]` — result for “normalised enrichment score”: 0.0246.
`DSTATKLDFDLEP [V4A]` — result for “normalised enrichment score”: 0.0442.
`DSTVTKLDFDAEP [L11A]`: “normalised enrichment score” 0.058.
`DSAVTKLDFDLEP [T3A]`: “normalised enrichment score” 0.133.
`DATVTKLDFDLEP [S2A]` — result for “normalised enrichment score”: -0.106.

Mixed results
`PhoQ, residues 284 288 289 292 302 303 QWQEDG` gave a fold induction of 17.3 (PhoP, residues 12 14 15 18 19 GQALL (Escherichia coli, UniProt P23836); Sort-seq, measured: YFP reporter; E. coli; PhoQ-PhoP variant library, with: 10 µM Mg2+; relative to: high Mg2+ state, higher = stronger signaling).

Excerpt of the above (sample 1):
`ACACAGAT` gave an E-score of 0.145.
`AACCACAA` has an E-score of 0.121.
For `ACGAAAAC`, the E-score was 0.153.
The E-score of `GGCTAGCA` is reported as -0.0657.
